Experimental data gathered from unrelated publications.
± gives the spread as reported.
Organism: Escherichia coli

Structure (SMILES)	assay	system	conditions	MIC
CC[C@H](C)[C@H](NC(=O)[C@H](CCCNC(=N)N)NC(=O)[C@H](CCCCN)NC(=O)[C@H](CC(C)C)NC(=O)[C@H](Cc1ccccc1)NC(=O)[C@H](CCCNC(=N)N)NC(=O)[C@H](C)NC(=O)[C@@H](N)C(C)C)C(=O)N[C@H](C(=O)N[C@@H](CCCCN)C(=O)N[C@@H](C)C(=O)N[C@@H](CC(C)C)C(=O)N[C@@H](Cc1ccccc1)C(N)=O)[C@@H](C)CC	–	ATCC 25922	1 h, 37 °C, dividing cells in LB	6.25 µg/mL
CC[C@H](C)[C@H](NC(=O)[C@H](CCCNC(=N)N)NC(=O)[C@H](CCCNC(=N)N)NC(=O)[C@@H]1CCCN1C(=O)[C@@H]1CCCN1C(=O)[C@H](CCCNC(=N)N)NC(=O)[C@@H]1CCCN1C(=O)[C@H](CCCNC(=N)N)NC(=O)[C@@H]1CCCN1C(=O)[C@H](CCCCN)NC(=O)[C@H](Cc1ccc(O)cc1)NC(=O)[C@@H]1CCCN1C(=O)[C@H](CCCNC(=N)N)NC(=O)[C@H](CCCCN)NC(=O)[C@H](CC(=O)O)NC(=O)[C@@H](N)C(C)C)C(=O)N[C@@H](Cc1ccc(O)cc1)C(=O)N[C@@H](CC(N)=O)C(=O)N[C@@H](CCCNC(=N)N)C(N)=O	bacterial growth	JW0013	–	0.83 ± 0.42 µg/mL
CC[C@H](C)[C@H](NC(=O)[C@H](Cc1ccccc1)NC(=O)CN)C(=O)N[C@@H](CCCCN)C(=O)N[C@H](C(=O)N[C@H](C(=O)N[C@@H](CCCNC(=N)N)C(=O)N[C@@H](CCCCN)C(=O)N[C@@H](CC(C)C)C(=O)N[C@@H](CC(C)C)C(=O)N[C@@H](CCCNC(=N)N)C(=O)N[C@@H](CC(C)C)C(=O)N[C@@H](Cc1ccccc1)C(N)=O)C(C)C)[C@@H](C)CC	broth microdilution	ATCC 25922, LB medium	16 to 20 h, 37 °C	6.25 µg/mL
CC[C@H](C)[C@H](NC(=O)[C@@H]1CCCN1C(=O)[C@H](CCCNC(=N)N)NC(=O)[C@@H]1CCCN1C(=O)[C@@H]1CCCN1C(=O)[C@@H](NC(=O)[C@@H]1CCCN1C(=O)[C@H](CCCNC(=N)N)NC(=O)[C@@H]1CCCN1C(=O)[C@H](CC(C)C)NC(=O)[C@H](Cc1ccc(O)cc1)NC(=O)[C@H](CO)NC(=O)CNC(=O)[C@H](CCCCN)NC(=O)[C@H](CC(=O)O)NC(=O)[C@@H](N)C(C)C)[C@@H](C)O)C(=O)N[C@@H](Cc1ccc(O)cc1)C(=O)N[C@@H](CC(N)=O)C(=O)N[C@@H](CCCNC(=N)N)C(=O)N[C@@H](CC(N)=O)C(=O)O	–	JW0368 ΔsbmA	18 h, 37 °C, 12.5% Mueller-Hinton broth	2.4 ± 0.499 µM
CC[C@H](C)[C@H](NC(=O)[C@H](Cc1c[nH]cn1)NC(=O)[C@H](Cc1c[nH]cn1)NC(=O)[C@H](Cc1ccccc1)NC(=O)[C@@H](N)Cc1ccccc1)C(=O)N[C@@H](Cc1ccccc1)C(=O)N[C@@H](CCCNC(=N)N)C(=O)NCC(=O)N[C@@H](C)C(=O)N[C@H](C(=O)N[C@@H](Cc1c[nH]cn1)C(=O)N[C@H](C(=O)NCC(=O)N[C@@H](CCCCN)C(=O)N[C@H](C(=O)N[C@H](C(=O)N[C@@H](Cc1c[nH]cn1)C(=O)N[C@@H](CCCNC(=N)N)C(=O)N[C@@H](CC(C)C)C(=O)N[C@H](C(=O)N[C@H](C(=O)NCC(N)=O)[C@@H](C)O)C(C)C)[C@@H](C)CC)[C@@H](C)O)C(C)C)C(C)C	broth microdilution	ATCC 25922	18 h, 37 °C	3.1 µg/mL
CC[C@H](C)[C@H](NC(=O)[C@H](CCCNC(=N)N)NC(=O)[C@@H](N)CCCNC(=N)N)C(=O)N[C@@H](CCCCN)C(=O)N[C@@H](CCCCN)C(=O)N[C@@H](CCCNC(=N)N)C(=O)N1CCC[C@H]1C(=O)N1CCC[C@H]1C(=O)N[C@@H](CCCNC(=N)N)C(=O)N[C@@H](CC(C)C)C(=O)N1CCC[C@H]1C(=O)N[C@@H](CCCNC(=N)N)C(=O)N1CCC[C@H]1C(=O)N[C@@H](CCCNC(=N)N)C(=O)N1CCC[C@H]1C(=O)N[C@@H](CCCCN)C(=O)O	broth microdilution	BW25113 parental, Mueller-Hinton broth	18 h, 37 °C	0.078 ± 0.032 µM
CC(C)C[C@H](NC(=O)[C@H](CCCCN)NC(=O)[C@H](Cc1c[nH]c2ccccc12)NC(=O)[C@H](CCCCN)NC(=O)[C@H](CC(C)C)NC(=O)[C@H](Cc1c[nH]c2ccccc12)NC(=O)[C@H](CC(C)C)NC(=O)[C@H](CCCCN)NC(=O)[C@H](CC(C)C)NC(=O)[C@H](CCCCN)NC(=O)[C@H](CCCCN)NC(=O)[C@@H](N)Cc1c[nH]c2ccccc12)C(=O)N[C@@H](Cc1c[nH]c2ccccc12)C(N)=O	–	ATCC 25922	1 h, 37 °C, dividing cells in LB	50 to 100 µg/mL
CC(C)C[C@H](NC(=O)[C@H](CCCNC(=N)N)NC(=O)[C@@H]1CCCN1C(=O)[C@H](CCCNC(=N)N)NC(=O)[C@@H]1CCCN1C(=O)[C@@H]1CCCN1C(=O)[C@H](CCCNC(=N)N)NC(=O)[C@@H]1CCCN1C(=O)[C@H](CCC(N)=O)NC(=O)[C@@H]1CCCN1C(=O)[C@H](CCCCN)NC(=O)[C@H](Cc1ccc(O)cc1)NC(=O)[C@@H](NC(=O)[C@@H]1CCCN1C(=O)[C@H](CCCNC(=N)N)NC(=O)[C@H](CC(N)=O)NC(=O)[C@H](CC(N)=O)NC(=O)CN)C(C)C)C(=O)O	–	JW0368 ΔsbmA	18 h, 37 °C, 12.5% Mueller-Hinton broth	0.096 ± 0.023 µM
CC[C@H](C)[C@H](NC(=O)[C@H](CC(=O)O)NC(=O)[C@H](Cc1ccccc1)NC(=O)[C@H](CC(C)C)NC(=O)CN)C(=O)N[C@H](C(=O)N[C@@H](CCCCN)C(=O)N[C@@H](CCCCN)C(=O)N[C@H](C(=O)N[C@H](C(=O)NCC(=O)N[C@@H](CC(C)C)C(=O)N[C@@H](CC(C)C)C(=O)N[C@@H](CCCCN)C(N)=O)C(C)C)C(C)C)C(C)C	–	ATCC 25922, CAMHB	18 h, 37 °C	> 21 µM
CC(C)C[C@H](NC(=O)[C@H](C)NC(=O)[C@H](CC(C)C)NC(=O)[C@@H](NC(=O)[C@@H](N)CO)[C@@H](C)O)C(=O)N[C@H](C(=O)N[C@@H](CC(C)C)C(=O)N[C@@H](CCCNC(=N)N)C(=O)N[C@@H](CC(C)C)C(=O)N[C@@H](CCCNC(=N)N)C(=O)NCC(=O)NCC(=O)O)C(C)C	–	DH5α	37 °C, ≥90% viability decrease	10 µM
CC[C@H](C)[C@H](NC(=O)[C@@H]1CCCN1C(=O)[C@H](CCCCN)NC(=O)[C@@H]1CCCN1C(=O)[C@@H]1CCCN1C(=O)[C@@H](NC(=O)[C@@H]1CCCN1C(=O)[C@H](CCCNC(=N)N)NC(=O)[C@@H]1CCCN1C(=O)[C@H](CCCNC(=N)N)NC(=O)[C@H](Cc1ccc(O)cc1)NC(=O)[C@H](CO)NC(=O)CNC(=O)[C@H](CCCCN)NC(=O)[C@H](CC(=O)O)NC(=O)[C@@H](N)C(C)C)[C@@H](C)O)C(=O)N[C@@H](Cc1ccc(O)cc1)C(=O)N[C@@H](CC(N)=O)C(=O)N[C@@H](CCCNC(=N)N)C(=O)N[C@@H](CC(N)=O)C(=O)O	broth microdilution	BW25113, 5% M9 medium	–	0.15 ± 0.034 µM
CSCC[C@H](NC(=O)[C@H](CC(N)=O)NC(=O)[C@@H]1CCCN1C(=O)[C@@H]1CCCN1C(=O)[C@H](CCCNC(=N)N)NC(=O)[C@@H]1CCCN1C(=O)[C@H](CCCNC(=N)N)NC(=O)[C@@H]1CCCN1C(=O)[C@H](CCCNC(=N)N)NC(=O)[C@H](Cc1ccc(O)cc1)NC(=O)[C@H](CC(=O)O)NC(=O)[C@@H]1CCCN1C(=O)[C@H](CCCCN)NC(=O)[C@H](CC(=O)O)NC(=O)[C@@H](N)C(C)C)C(=O)O	alamarBlue	SQ110	overnight, 37 °C	> 25 µM
CSCC[C@H](NC(=O)[C@H](CO)NC(=O)[C@H](CCCCN)NC(=O)[C@H](Cc1c[nH]c2ccccc12)NC(=O)[C@@H](N)CO)C(=O)N[C@@H](C)C(=O)N[C@@H](CCCCN)C(=O)N[C@@H](CCCCN)C(=O)N[C@@H](CC(C)C)C(=O)N[C@@H](CCCCN)C(=O)N[C@@H](CCC(=O)O)C(=O)N[C@@H](Cc1ccc(O)cc1)C(=O)N[C@@H](CCSC)C(=O)N[C@@H](CCC(=O)O)C(=O)N[C@@H](CCCCN)C(=O)N[C@@H](CC(C)C)C(=O)N[C@@H](CCCCN)C(=O)N[C@@H](CCC(N)=O)C(=O)N[C@@H](CCCNC(=N)N)C(=O)N[C@@H](C)C(=O)O	broth microdilution	K12	37 °C	> 100 µM
CCN1CCN(C(=O)N[C@@H](C(=O)N[C@@H]2C(=O)N3[C@@H]2SC(C)(C)[C@@H]3C(=O)O)c2ccccc2)C(=O)C1=O	broth microdilution	BW25113, Mueller-Hinton broth	–	12.5 µg/mL
CC[C@H](C)[C@H](NC(=O)[C@H](CC(C)C)NC(=O)CNC(=O)[C@H](CO)NC(=O)[C@@H](NC(=O)[C@H](CC(C)C)NC(=O)[C@@H](N)CC(N)=O)C(C)C)C(=O)N[C@@H](CCC(=O)O)C(=O)N[C@@H](C)C(=O)N[C@@H](CCCNC(=N)N)C(=O)N[C@@H](CCCCN)C(=O)N[C@@H](Cc1ccc(O)cc1)C(=O)N[C@@H](CC(C)C)C(=O)N[C@@H](CCC(=O)O)C(=O)N[C@@H](CCC(N)=O)C(=O)N[C@@H](CC(C)C)C(=O)N[C@@H](Cc1c[nH]cn1)C(=O)N[C@@H](CCCNC(=N)N)C(=O)N[C@@H](CCCCN)C(=O)N[C@@H](CC(C)C)C(=O)N[C@@H](CCCCN)C(=O)N[C@@H](CC(N)=O)C(=O)N[C@@H](CCCNC(=N)N)C(=O)N[C@@H](CCCCN)C(=O)N[C@H](C(=O)O)C(C)C	broth microdilution	K12	37 °C	> 92 µM
CC(C)C[C@H](NC(=O)CN)C(=O)N[C@@H](Cc1ccccc1)C(=O)N[C@@H](CCCCN)C(=O)N[C@@H](CC(C)C)C(=O)N[C@@H](CC(C)C)C(=O)N[C@@H](CCCCN)C(=O)N[C@@H](CCCCN)C(=O)N[C@@H](CC(C)C)C(=O)N[C@@H](CC(C)C)C(=O)N[C@@H](CCCCN)C(=O)N[C@@H](CC(C)C)C(=O)N[C@@H](CC(C)C)C(=O)N[C@@H](CCCCN)C(N)=O	–	ATCC 25922, CAMHB	18 h, 37 °C	> 20 µM
CC[C@H](C)[C@H](NC(=O)CN)C(=O)N[C@@H](CCCCN)C(=O)N[C@H](C(=O)N[C@@H](CCCNC(=N)N)C(=O)N[C@@H](CCCCN)C(=O)N[C@@H](CC(C)C)C(=O)N[C@@H](Cc1ccccc1)C(=O)N[C@@H](CCCCN)C(=O)N[C@@H](CCCCN)C(=O)N[C@@H](CC(C)C)C(=O)N[C@@H](CC(C)C)C(=O)N[C@@H](CCCNC(=N)N)C(N)=O)[C@@H](C)CC	–	ATCC 25922	1 h, 37 °C, dividing cells in LB	50 µg/mL
CSCC[C@H](NC(=O)[C@H](CC(N)=O)NC(=O)[C@@H]1CCCN1C(=O)[C@@H]1CCCN1C(=O)[C@H](CCCNC(=N)N)NC(=O)[C@@H]1CCCN1C(=O)[C@H](CCCNC(=N)N)NC(=O)[C@@H]1CCCN1C(=O)[C@H](CCCNC(=N)N)NC(=O)[C@H](Cc1ccc(O)cc1)NC(=O)[C@H](CC(=O)O)NC(=O)[C@@H]1CCCN1C(=O)[C@H](CCCCN)NC(=O)[C@H](CC(=O)O)NC(=O)[C@@H](N)C(C)C)C(=O)O	broth microdilution	K12	37 °C	> 100 µM

For quick reference, copied from above:
Structure (SMILES)	assay	system	conditions	MIC
CC[C@H](C)[C@H](NC(=O)[C@@H]1CCCN1C(=O)[C@H](CCCCN)NC(=O)[C@@H]1CCCN1C(=O)[C@@H]1CCCN1C(=O)[C@@H](NC(=O)[C@@H]1CCCN1C(=O)[C@H](CCCNC(=N)N)NC(=O)[C@@H]1CCCN1C(=O)[C@H](CCCNC(=N)N)NC(=O)[C@H](Cc1ccc(O)cc1)NC(=O)[C@H](CO)NC(=O)CNC(=O)[C@H](CCCCN)NC(=O)[C@H](CC(=O)O)NC(=O)[C@@H](N)C(C)C)[C@@H](C)O)C(=O)N[C@@H](Cc1ccc(O)cc1)C(=O)N[C@@H](CC(N)=O)C(=O)N[C@@H](CCCNC(=N)N)C(=O)N[C@@H](CC(N)=O)C(=O)O	broth microdilution	BW25113, 5% M9 medium	–	0.15 ± 0.034 µM
CSCC[C@H](NC(=O)[C@H](CC(N)=O)NC(=O)[C@@H]1CCCN1C(=O)[C@@H]1CCCN1C(=O)[C@H](CCCNC(=N)N)NC(=O)[C@@H]1CCCN1C(=O)[C@H](CCCNC(=N)N)NC(=O)[C@@H]1CCCN1C(=O)[C@H](CCCNC(=N)N)NC(=O)[C@H](Cc1ccc(O)cc1)NC(=O)[C@H](CC(=O)O)NC(=O)[C@@H]1CCCN1C(=O)[C@H](CCCCN)NC(=O)[C@H](CC(=O)O)NC(=O)[C@@H](N)C(C)C)C(=O)O	alamarBlue	SQ110	overnight, 37 °C	> 25 µM
